Measurements collected from several papers.
Numbered parts are unrelated; each lists some results of a single study. Substitutions count along the parent as printed.

Sample 1
Target: RING finger protein unkempt homolog, zinc fingers 1-6, SBP tag (UNK, Homo sapiens, UniProt Q9C0B0, residues 30-357)
UniProt Q9C0B0, sequence (30-357, looked up): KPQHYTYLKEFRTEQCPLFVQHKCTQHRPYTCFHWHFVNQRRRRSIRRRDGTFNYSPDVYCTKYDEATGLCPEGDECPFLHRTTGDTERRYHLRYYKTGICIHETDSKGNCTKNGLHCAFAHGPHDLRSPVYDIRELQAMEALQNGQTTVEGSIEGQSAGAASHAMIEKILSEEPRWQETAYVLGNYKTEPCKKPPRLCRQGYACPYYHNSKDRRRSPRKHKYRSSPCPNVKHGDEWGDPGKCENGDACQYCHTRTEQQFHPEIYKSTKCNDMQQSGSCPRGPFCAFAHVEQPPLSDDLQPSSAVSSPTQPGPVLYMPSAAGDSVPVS
Technique: RNA Bind-n-Seq
Form: RNA
Medium: in vitro
Concentration: 100 nM
Setting: RNA with constant flanks, vertebrate orthologous sites, ends assumed
Baseline: input RNA pool
Reading: higher = stronger binding
Measurement: bound/input enrichment
All sequences stand within: GGGAGUUCUACAGUCCGACGAUC … CAACAGAGGAUUGAGCAUCA
Strand = GAGCUAAAGGAGUUAGCAUCUUUAUUUUUGUAUCAAAGAUAAAGGUUAUUUUGAAAUUAUUAGGGUUUUUACACAAUUCUGAAAUCUGUUGCUUUUGUAAACAAAUUGUUUGAUCUUAGU; value = 1.09 ratio
Strand = ACAUAGACUCAUCGGAAAUUGCUCUGAGGUUCCUGAAGUCAUUACACAGGCUUCCACCUAAGUAUAGUGUUUUGUUUUGUUUUAACUUGGGUACUGUUUCCACAGUUAAUGUUUUUAAAA; value = 0.517 ratio
Strand = GGUUGAUGUUCUGAAGAACCACUUAGUAAAAGAAGGUCGGGUAGAUGAAGAAAUUGCACUUAGAAUUAUCAAUGAGGGUGCGGCCAUCCUUCGGAGAGAGAAAACCAUGAUAGAAGUAGA; value = 1.23 ratio
Strand = AAAUUAUAGCAGGAGAGCCAAGCAGUAGCAUUGGGGUUUUUUUGUAAAUGUAAAAGUGAUUAGAUUCAGACUUUGUUUCCUUAUUCAGUUUUAAAAAUAAAAAAAUACCUCAGUGCUGUU; value = 0.302 ratio
Strand = GGGAUAUAUUGAAUAGUAUUAAACAUUUUCGUCUUCCUUUACCUUUUAUCCCUUAAUAUCUAGUCUACUUUUUUAAAUUUCAGACUUCAAUGCUCUUUGAAUUGAUAAUUCCAAUUUUCA; value = 0.872 ratio
Strand = GCAAUGAAAAAGCAGCCUUUCUCCCAGUCCCCCUUUCACUAGGAGAUACAAACGUUACCAUAGAAGAGCAAUUAAACUCAAUAAAUUUAUCUUUUCAGGAUGAUCCAGACUCCAGUACCA; value = 1.39 ratio
Strand = CUACACCAGAUAUUUUAACUGUUUUAAAGUUACAAACAAGCUUUGCUUUUUGCAUUUAAAUAGAAUACUUUUAUAUUUUAAGUGCUUCAGGUGUGUGGAGGUGUUAGUUUGCUCUUAUAA; value = 0.606 ratio
Strand = GCAUGUCCUGUUACUGUGGUAUUUUAAAUAUCCACAGUACUCACUUUUUCCAAACGAUCCUAGUAAUUGCCUAGAAAUAUCUUUCUCUUACCUGUUAUUUAUCAAUUUUUCCCAGUAUUU; value = 2.03 ratio
Strand = GCUCUAGUUCUUGAGAACCAACACUCGUAAAAGAUUUAGAAAAAAGUUUACAACAUAAUCUAGUUUACCGAAGACGCCUUGUGCUAGAAUACUUUUUAAGAAGUAUUUUUGAAUACCAUU; value = 0.555 ratio
Strand = AUUCAAACCUGUGGUACCAUGGCCUCAUGUUGAAGGAGUAGAAGUGGACUUAGAGUCUAUUAGAAGAAAAAACAAGGCCAAAAAUGAACAGGAGCGUCAUGCUGGAGGAGAUUCCCAAAA; value = 0.398 ratio

Sample 2
Target: CCNE1, cyclin fold, Cln2 fusion (human)
Technique: yeast growth competition, sequencing
Medium: yeast
Setting: strong parent motif
Baseline: not given
Reading: higher = stronger binding
Measurement: normalised enrichment score
Starting sequence: E2F2 docking peptide (human); LPAKRKLDLEGIG; partner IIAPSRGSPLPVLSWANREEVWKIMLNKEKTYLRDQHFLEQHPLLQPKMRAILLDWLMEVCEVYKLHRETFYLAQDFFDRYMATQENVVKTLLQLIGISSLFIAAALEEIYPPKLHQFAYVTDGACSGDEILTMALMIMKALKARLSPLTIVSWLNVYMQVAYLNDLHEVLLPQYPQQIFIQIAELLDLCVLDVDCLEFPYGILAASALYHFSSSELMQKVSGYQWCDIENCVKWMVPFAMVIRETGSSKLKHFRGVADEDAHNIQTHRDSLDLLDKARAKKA
Substitution = APAKRKLDLEGIG [L1A]; value = 0.745
Substitution = LPAKRKLDFEGIG [L9F]; value = 5.59
Substitution = LPAKRKLDAEGIG [L9A]; value = 0.221
Substitution = LPAARKLDLEGIG [K4A]; value = 1.16
Substitution = LPAKRALDLEGIG [K6A]; value = 0.325
Substitution = LAAKRKLDLEGIG [P2A]; value = 0.589
Substitution = LPAKRKADLEGIG [L7A]; value = -0.312

Sample 3
Target: ABI1, truncated, D143A, DHFR fusion (Arabidopsis thaliana)
Technique: DHFR PCA, deep sequencing
Medium: yeast
Setting: methotrexate growth selection, single substitutions
Added: (+)-ABA 0.11 µM
Baseline: wild-type fitted maximum
Reading: higher = stronger binding
Measurement: relative binding score
Starting sequence: PYL1, truncated, DHFR fusion (Arabidopsis thaliana); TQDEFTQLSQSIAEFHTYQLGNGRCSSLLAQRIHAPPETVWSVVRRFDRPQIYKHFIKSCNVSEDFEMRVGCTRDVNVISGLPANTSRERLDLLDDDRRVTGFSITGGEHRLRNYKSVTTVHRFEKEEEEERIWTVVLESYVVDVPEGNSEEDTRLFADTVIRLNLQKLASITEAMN
Substitution = K168Y; value = 9.27%
Substitution = E125W; value = 12.3%
Substitution = C60Y; value = 4.63%
Substitution = L169F; value = -11.9%
Substitution = A30K; value = 15.1%
Substitution = Y115S; value = -2.09%
Substitution = L138M; value = 2.29%

Single results of other studies
Molecule = PhoQ, residues 284 288 289 292 302 303 SQSLSM; target = PhoP, residues 12 14 15 18 19 FWNTL (Escherichia coli, UniProt P23836); assay = Sort-seq, measured: YFP reporter; test system = E. coli; conditions = PhoQ-PhoP variant library, added: 10 µM Mg2+; how to read = baseline: high Mg2+ state, higher = stronger signaling; measurement = fold induction; value = 5.19

Excerpt of the above (sample 1):
Strand = GCAAUGAAAAAGCAGCCUUUCUCCCAGUCCCCCUUUCACUAGGAGAUACAAACGUUACCAUAGAAGAGCAAUUAAACUCAAUAAAUUUAUCUUUUCAGGAUGAUCCAGACUCCAGUACCA; value = 1.39 ratio
Strand = CUACACCAGAUAUUUUAACUGUUUUAAAGUUACAAACAAGCUUUGCUUUUUGCAUUUAAAUAGAAUACUUUUAUAUUUUAAGUGCUUCAGGUGUGUGGAGGUGUUAGUUUGCUCUUAUAA; value = 0.606 ratio
